Assay results of several laboratories.
Numbers after ± are the reported error.

CN(C)S(=O)(=O)c1ccc(S(=O)(=O)N2CCC(n3c(=O)[nH]c4ccccc43)CC2)cc1 — solubility (HPLC; soya oil; 24 h, 20 °C): < 2 µg/mL
CC(C)(C)C(=O)Nc1ccccc1 — solubility (PBS; 2 h, pH 7.4, 25 °C, 2% DMSO): 438 µM
CCCCCCCC/C=C\CCCCCCCCO[Si](CCCCN(C)C)(OCCCCCCCC/C=C\CCCCCCCC)OCCCCCCCC/C=C\CCCCCCCC — zeta potential (pH 7.5, formulated): -1.35 mV
N=C(N)NCCC[C@@H]1NC(=O)[C@H](CO)NC(=O)[C@@H](NC(=O)[C@H](CO)NC(=O)[C@H](CO)NC(=O)[C@H](Cc2c[nH]c3ccccc23)NC(=O)CNC(=O)[C@H](CO)NC(=O)[C@@H](N)Cc2c[nH]c3ccccc23)CSSC[C@@H](C(=O)NCC(=O)O)NC(=O)[C@H](CO)NC1=O — Ctrough (human, plasma; i.v., 5 mg/kg thrice weekly, 4 weeks, mean): 0 ng/mL
CC[C@H](C)[C@@H]1NC(=O)[C@H](Cc2ccc(O)cc2)NC(=O)CCCSC[C@@H](C(=O)N(CC(=O)N[C@@H](CC(C)C)C(=O)NCC(N)=O)Cc2ccc(F)cc2)NC(=O)[C@H](CC(N)=O)NC(=O)[C@H](CCC(N)=O)NC1=O — clearance (human; intravenous, 3-20 µg): 2.2 L/min
C/C(N)=N/C(=N\S(=O)(=O)c1ccc(C(F)(F)F)cc1)N1C[C@H](c2ccccc2)C(c2ccc(Cl)cc2)=N1 — tissue/plasma ratio (C57BL/6 mouse, male, brain; intravenous, 10 mg/kg; reference: brain over plasma): 0.05
CC[C@H](C)[C@H](NC(=O)[C@H](CC(N)=O)NC(=O)[C@@H](N)CCSC)C(=O)N[C@@H](CCSC)C(=O)N[C@@H](CC(=O)O)C(=O)N[C@@H](Cc1ccccc1)C(=O)N[C@@H](CC(N)=O)C(=O)N[C@H](C(=O)N[C@@H](CCCCN)C(=O)N[C@@H](CCCCN)C(=O)N[C@@H](CC(C)C)C(=O)N[C@@H](C)C(=O)N[C@@H](C)C(=O)N[C@@H](CC(=O)O)C(=O)N[C@@H](C)C(=O)NCC(=O)N[C@H](C(=O)N[C@@H](Cc1c[nH]c2ccccc12)C(=O)N[C@@H](CC(C)C)C(=O)N[C@@H](CO)C(=O)N[C@@H](CCCNC(=N)N)C(=O)N[C@@H](C)C(=O)N[C@H](C(=O)N[C@@H](CCC(N)=O)C(=O)N[C@@H](Cc1ccccc1)C(=O)N[C@H](C(=O)N[C@@H](CCC(=O)O)C(=O)N[C@@H](CCC(=O)O)C(=O)N[C@@H](CCCCN)C(=O)N[C@@H](CC(C)C)C(=O)NCC(=O)N[C@@H](CCC(N)=O)C(=O)N[C@@H](C)C(N)=O)[C@@H](C)O)C(C)C)[C@@H](C)O)C(C)C — helical content (circular dichroism; 100% DOPS liposomes; 1 mM lipid): 50%
C=C(NC(=O)c1csc(-c2nc3c(cc2O)-c2nc(cs2)C(=O)NC(C(C)O)C(=O)NC(=C(C)OC)c2nc(cs2)C(=O)NC2c4nc(cs4)C(=O)NC(COC(=O)c4c5c6c(cccc6n4O)COC(=O)C(OC4CC(C)(O)C(N(C)C)C(C)O4)C2OC5)c2nc-3cs2)n1)C(N)=O (stereo not shown) — Tmax (male Sprague-Dawley rat, plasma; intravenous, 2 mg/kg, single dose, infusion): 4.8 min
CN(O)C(=O)CCC(=O)NCCCN(CCCCN(CCCNC(=O)CCC(=O)N(C)O)C(=O)CCC(=O)N(C)O)C(=O)CCC(=O)N(C)O.[89Zr] — intact complex (radio-TLC; aqueous buffer; 1 d, pH 7.2, 37 °C, 89Zr-labelled complex, together with: CuCl2 10-fold excess): 97.9 ± 1.3%
COc1cccc(OC)c1-c1cc(C(=O)NC2(C(=O)O)C3CC4CC(C3)CC2C4)nn1-c1ccc(C(=O)N(C)CCCN(C)CCCN(C)C(=O)[C@H](CCCCNC(=O)[C@H](CC(C)C)NC(=O)C2OC2C(=O)O)NC(=O)CN2CCN(CC(=O)[O-])CCN(CC(=O)[O-])CCN(CC(=O)[O-])CC2)cc1C(C)C.[177Lu+3] (mixture of isomers) — tumour-to-lung ratio (mouse, HT-29 xenograft; 72 h post injection, biodistribution; reference: tumour over lung uptake): 22.7
O=C1NCC(COc2cccc3c(NCc4ccccc4)nc(Cl)nc23)O1 (stereo not shown) — tissue/plasma ratio (C57BL/6 mouse, heart; oral, 30 mg/kg, 0.5 h; reference: heart over plasma): < 0.145
CCC(C(=O)Nc1ccc(C(N)=O)c(F)c1)n1cc(OC)c(-c2cc(Cl)ccc2-n2cc(C(F)(F)F)nn2)cc1=O (stereo not shown) — subjects with moderate adverse event (male humans; oral, 25 mg, fasted): 0%
CC(C)=CCC1=C([O-])C(=O)c2ccccc2C1=O.CC(C)=CCC1=C([O-])C(=O)c2ccccc2C1=O.Cc1cc2cccnc2c2ncccc12.O.[Cu+2] — anodic peak potential (cyclic voltammetry; CH2Cl2; 0.1 mM, together with: 0.1 M Bu4NPF6; reference: Ag/AgCl (sat. KOH)): -1.39 V

Some of these lines once more:
CCC(C(=O)Nc1ccc(C(N)=O)c(F)c1)n1cc(OC)c(-c2cc(Cl)ccc2-n2cc(C(F)(F)F)nn2)cc1=O (stereo not shown) — subjects with moderate adverse event (male humans; oral, 25 mg, fasted): 0%
CN(C)S(=O)(=O)c1ccc(S(=O)(=O)N2CCC(n3c(=O)[nH]c4ccccc43)CC2)cc1 — solubility (HPLC; soya oil; 24 h, 20 °C): < 2 µg/mL
